Measured values from different studies.
Each numbered part is a random draw from the data of one study; scales do not carry over between parts. “And” joins repeats or separate records; there may be more than shown.
Sequence of UniProt O15530 (whole entry, looked up): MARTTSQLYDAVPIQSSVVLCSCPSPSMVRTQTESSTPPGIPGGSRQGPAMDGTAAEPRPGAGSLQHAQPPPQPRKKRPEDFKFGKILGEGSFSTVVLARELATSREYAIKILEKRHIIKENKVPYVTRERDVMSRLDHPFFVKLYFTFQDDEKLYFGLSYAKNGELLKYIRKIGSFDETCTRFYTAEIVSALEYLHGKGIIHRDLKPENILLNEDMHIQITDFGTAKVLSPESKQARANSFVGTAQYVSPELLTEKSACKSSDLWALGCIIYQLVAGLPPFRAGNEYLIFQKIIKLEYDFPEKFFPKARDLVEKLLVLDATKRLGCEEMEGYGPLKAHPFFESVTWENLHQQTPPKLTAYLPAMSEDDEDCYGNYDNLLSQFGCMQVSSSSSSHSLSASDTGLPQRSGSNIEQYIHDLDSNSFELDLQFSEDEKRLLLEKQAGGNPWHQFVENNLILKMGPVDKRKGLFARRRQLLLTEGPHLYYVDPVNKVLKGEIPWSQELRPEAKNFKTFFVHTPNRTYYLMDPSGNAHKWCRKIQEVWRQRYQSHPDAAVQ
Sequence of UniProt P06493 (whole entry, looked up): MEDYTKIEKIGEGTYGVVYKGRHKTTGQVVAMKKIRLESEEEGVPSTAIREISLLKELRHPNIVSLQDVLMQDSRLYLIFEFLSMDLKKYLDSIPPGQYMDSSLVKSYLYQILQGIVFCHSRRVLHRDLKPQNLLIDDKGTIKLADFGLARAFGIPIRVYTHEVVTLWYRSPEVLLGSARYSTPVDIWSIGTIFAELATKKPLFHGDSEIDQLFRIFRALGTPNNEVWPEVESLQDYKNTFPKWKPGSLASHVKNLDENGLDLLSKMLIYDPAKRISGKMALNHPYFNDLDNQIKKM
Sequence of UniProt P30530 (whole entry, looked up): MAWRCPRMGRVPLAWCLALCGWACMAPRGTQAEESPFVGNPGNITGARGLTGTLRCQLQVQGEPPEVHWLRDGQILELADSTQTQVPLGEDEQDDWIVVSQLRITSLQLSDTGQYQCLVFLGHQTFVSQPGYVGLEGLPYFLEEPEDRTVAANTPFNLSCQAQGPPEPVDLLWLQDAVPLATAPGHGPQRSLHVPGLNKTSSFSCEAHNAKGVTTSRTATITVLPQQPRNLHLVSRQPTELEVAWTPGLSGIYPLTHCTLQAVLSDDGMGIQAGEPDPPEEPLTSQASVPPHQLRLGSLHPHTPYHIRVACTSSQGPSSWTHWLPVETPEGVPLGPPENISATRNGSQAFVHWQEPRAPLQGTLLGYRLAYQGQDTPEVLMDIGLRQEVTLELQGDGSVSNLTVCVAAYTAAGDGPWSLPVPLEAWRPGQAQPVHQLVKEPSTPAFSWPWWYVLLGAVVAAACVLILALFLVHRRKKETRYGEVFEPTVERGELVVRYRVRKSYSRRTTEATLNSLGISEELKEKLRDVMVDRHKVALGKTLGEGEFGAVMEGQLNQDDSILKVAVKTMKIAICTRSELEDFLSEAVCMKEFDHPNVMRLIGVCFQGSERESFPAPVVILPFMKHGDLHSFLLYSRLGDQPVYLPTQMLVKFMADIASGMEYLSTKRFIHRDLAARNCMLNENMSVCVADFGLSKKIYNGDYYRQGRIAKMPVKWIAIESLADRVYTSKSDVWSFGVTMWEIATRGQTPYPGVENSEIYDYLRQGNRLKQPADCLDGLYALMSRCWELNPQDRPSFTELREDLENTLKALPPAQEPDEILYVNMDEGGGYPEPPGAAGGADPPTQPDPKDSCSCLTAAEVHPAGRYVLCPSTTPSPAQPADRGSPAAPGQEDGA
Sequence of UniProt O43781 (whole entry, looked up): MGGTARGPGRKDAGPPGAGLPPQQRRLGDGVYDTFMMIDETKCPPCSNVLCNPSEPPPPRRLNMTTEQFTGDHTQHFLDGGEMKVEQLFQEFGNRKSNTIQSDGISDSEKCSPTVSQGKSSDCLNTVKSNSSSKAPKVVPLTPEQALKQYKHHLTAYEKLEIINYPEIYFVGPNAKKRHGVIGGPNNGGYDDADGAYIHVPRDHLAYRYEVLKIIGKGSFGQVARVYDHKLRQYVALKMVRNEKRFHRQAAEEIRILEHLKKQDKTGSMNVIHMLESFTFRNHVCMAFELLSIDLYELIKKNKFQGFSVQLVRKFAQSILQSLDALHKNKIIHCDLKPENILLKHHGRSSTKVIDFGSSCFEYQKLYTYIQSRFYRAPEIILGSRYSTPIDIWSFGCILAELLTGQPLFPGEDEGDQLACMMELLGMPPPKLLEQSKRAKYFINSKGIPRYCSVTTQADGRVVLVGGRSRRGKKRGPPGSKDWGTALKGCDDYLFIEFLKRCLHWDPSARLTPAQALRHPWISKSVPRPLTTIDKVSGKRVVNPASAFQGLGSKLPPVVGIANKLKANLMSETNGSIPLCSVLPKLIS
Sequence of UniProt Q16816 (whole entry, looked up): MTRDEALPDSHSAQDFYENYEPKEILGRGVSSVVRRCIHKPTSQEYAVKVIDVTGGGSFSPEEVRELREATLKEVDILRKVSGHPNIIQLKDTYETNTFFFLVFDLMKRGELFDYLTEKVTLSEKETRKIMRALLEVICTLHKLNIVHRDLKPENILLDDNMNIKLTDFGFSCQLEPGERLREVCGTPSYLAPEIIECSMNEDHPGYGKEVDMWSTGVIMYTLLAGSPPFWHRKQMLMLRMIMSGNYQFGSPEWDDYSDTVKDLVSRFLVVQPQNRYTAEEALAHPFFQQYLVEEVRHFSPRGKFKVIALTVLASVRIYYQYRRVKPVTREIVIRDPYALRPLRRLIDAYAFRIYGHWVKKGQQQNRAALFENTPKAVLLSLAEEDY
Sequence of UniProt Q00534 (whole entry, looked up): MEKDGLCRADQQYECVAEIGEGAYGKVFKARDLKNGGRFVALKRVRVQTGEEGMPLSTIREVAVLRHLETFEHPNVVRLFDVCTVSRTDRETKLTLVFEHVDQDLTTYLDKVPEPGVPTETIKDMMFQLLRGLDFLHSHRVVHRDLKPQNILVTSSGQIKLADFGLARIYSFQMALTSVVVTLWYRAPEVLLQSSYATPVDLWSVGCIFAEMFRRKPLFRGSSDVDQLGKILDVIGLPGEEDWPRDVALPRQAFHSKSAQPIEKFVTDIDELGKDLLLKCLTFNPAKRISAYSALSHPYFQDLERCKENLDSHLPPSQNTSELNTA
Sequence of UniProt O95819 (whole entry, looked up): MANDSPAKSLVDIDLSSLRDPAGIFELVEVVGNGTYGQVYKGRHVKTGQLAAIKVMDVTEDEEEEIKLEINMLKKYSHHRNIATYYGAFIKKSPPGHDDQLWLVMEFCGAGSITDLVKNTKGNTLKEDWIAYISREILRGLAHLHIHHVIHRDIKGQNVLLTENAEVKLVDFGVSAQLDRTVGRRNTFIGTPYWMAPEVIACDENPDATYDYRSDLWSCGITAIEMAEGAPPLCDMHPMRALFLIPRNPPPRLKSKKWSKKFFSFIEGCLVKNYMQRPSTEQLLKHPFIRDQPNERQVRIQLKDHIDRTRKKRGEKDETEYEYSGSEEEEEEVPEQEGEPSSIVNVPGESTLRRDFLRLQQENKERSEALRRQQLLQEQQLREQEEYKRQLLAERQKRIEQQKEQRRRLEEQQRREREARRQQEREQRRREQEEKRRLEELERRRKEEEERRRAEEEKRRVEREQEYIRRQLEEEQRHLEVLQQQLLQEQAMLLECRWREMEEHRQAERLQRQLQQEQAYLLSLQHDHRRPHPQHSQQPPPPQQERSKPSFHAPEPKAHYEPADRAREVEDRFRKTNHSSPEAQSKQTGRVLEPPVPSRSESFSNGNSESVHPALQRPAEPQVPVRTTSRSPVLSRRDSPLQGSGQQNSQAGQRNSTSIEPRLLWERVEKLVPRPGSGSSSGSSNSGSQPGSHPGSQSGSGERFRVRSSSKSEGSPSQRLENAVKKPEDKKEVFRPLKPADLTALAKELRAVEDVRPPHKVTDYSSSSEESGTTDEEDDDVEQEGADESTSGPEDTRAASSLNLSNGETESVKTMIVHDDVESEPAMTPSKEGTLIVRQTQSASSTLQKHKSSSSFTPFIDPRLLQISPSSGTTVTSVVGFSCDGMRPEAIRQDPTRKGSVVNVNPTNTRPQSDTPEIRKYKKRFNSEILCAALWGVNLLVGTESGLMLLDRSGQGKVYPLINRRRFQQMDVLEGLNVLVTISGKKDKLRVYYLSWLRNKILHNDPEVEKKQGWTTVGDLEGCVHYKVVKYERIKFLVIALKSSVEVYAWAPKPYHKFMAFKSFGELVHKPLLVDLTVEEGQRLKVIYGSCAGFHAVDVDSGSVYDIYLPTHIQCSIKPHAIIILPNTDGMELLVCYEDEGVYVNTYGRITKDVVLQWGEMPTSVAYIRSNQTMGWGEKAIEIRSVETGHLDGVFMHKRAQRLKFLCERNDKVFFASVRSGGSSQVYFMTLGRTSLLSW

Block 1
Structure (SMILES): C[C@@H]1CCN(C(=O)CC#N)C[C@@H]1N(C)c1ncnc2[nH]ccc12
Read-out: enzyme activity
Mode: inhibitor
Concentration: 0.5 µM
Relative to: control
target | remaining activity
EPHB4 (Homo sapiens, UniProt P54760) | 89.8%
PRKACG (Homo sapiens, UniProt P22612) | 111%
Cyclin-dependent kinase 1, with cyclin B (CDK1, Homo sapiens, UniProt P06493) | 90.8%
WNK3 (Homo sapiens, UniProt Q9BYP7) | 104%
TSSK2 (Homo sapiens, UniProt Q96PF2) | 87.9%
DYRK3 (Homo sapiens, UniProt O43781) | 106%
MAP4K4 (Homo sapiens, UniProt O95819) | 101%
EPHA4 (Homo sapiens, UniProt P54764) | 99.1%
MAPKAPK3 (Homo sapiens, UniProt Q16644) | 100%
STK17A (Homo sapiens, UniProt Q9UEE5) | 106%
Cyclin-dependent kinase 6, with cyclin D3 (CDK6, Homo sapiens, UniProt Q00534) | 110%
PDPK1 (Homo sapiens, UniProt O15530) | 94.1%
AXL (Homo sapiens, UniProt P30530) | 97.7%
EPHB1 (Homo sapiens, UniProt P54762) | 106%
PHKG1 (Homo sapiens, UniProt Q16816) | 90%
HIPK4 (Homo sapiens, UniProt Q8NE63) | 96.2%
HIPK2 (Homo sapiens, UniProt Q9H2X6) | 96.9%

Block 2
Target: Alpha-2B adrenergic receptor (ADRA2B, Homo sapiens, UniProt P18089)
Sequence of UniProt P18089 (whole entry, looked up): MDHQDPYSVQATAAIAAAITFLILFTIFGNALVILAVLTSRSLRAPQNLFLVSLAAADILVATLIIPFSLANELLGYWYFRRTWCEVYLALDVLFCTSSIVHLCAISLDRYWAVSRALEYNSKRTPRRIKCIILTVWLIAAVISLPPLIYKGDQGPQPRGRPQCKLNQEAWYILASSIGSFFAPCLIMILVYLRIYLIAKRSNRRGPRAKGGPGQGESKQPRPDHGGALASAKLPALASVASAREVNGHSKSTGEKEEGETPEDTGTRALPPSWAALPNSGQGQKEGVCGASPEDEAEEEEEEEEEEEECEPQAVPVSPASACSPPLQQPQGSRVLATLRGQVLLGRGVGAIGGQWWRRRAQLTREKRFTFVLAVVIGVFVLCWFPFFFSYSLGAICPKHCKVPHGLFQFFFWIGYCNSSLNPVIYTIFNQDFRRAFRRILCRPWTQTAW
Read-out: ligand displacement
Concentration: 10 µM
Structure (SMILES) | inhibition [%]
COc1ccc2cc(OCC3(C(=O)O)CN(C(=O)c4ccc(F)cc4)C3)ccc2c1 | 9.24
C[C@H](c1ccnc(Nc2nc3ccc(-c4cc(N(C)C)ncn4)cc3[nH]2)c1)N1CCN(C(=O)CC(F)(F)F)CC1 | 24.7
NC(=O)c1ccc2nc(-c3ccc(C4(N)CCC4)cc3)c(-c3ccccc3)n2n1 | 28.7
CC1CCN(c2ccnc(NCc3cn(C)cn3)n2)CC1 | 56.3
Cc1noc([C@H]2C[C@@H](c3ccc(C(F)(F)F)cc3)CN(C(=O)N3CCS(=O)(=O)C3)C2)n1 | -2.77
O=c1nc(-c2ccccn2)sc2ccccc12 | 17
CN([C@@H]1CCc2c(CC(=O)O)c3ccccc3n2C1)S(=O)(=O)c1ccc(F)cc1 | 12.7
Nc1cnc(N2CCc3cc(S(=O)(=O)Nc4c(F)cc(Cl)cc4F)cc(N4CCCC4=O)c32)nc1 | 0.99
O=C1NC(c2ccccn2)Sc2ccccc21 (stereo not drawn) | -5.58
NS(=O)(=O)c1cc(NC(=O)Cc2ccccc2)ccc1Oc1cccc(Cl)c1 | 56.6
CCOc1ccc(S(=O)(=O)Nc2ccc(Cl)cc2C#Cc2cnc(C(=O)O)cc2OC)c2ncccc12 | 15
COc1cccc(NC(=O)c2nc3scc(CN(C)Cc4ccccc4)c3c(=O)[nH]2)c1 | 17.4
C[C@@H](c1cccc(C#N)c1)n1cc(Cl)cc(C(N)=O)c1=N | 0.7
O=C(Nc1ccc(Oc2ccc(F)cc2)cc1)N1CCc2ncccc2[C@H]1c1ccc(F)cc1 | 49.6
Cn1cc(Cl)c2c(Oc3c(F)cc(Nc4cc(Cl)nc(N)n4)cc3F)ccnc21 | -4.05
N#CC1(c2ccccn2)CCN(Cc2cc(C(=O)N3CCCC3)c(=O)n3ccccc23)CC1 | -2.99
c1ccc(N2CCN(Cc3nc4ccccc4[nH]3)CC2)nc1 | 18.4
CC(=O)Nc1ncc(CN2CCC[C@H](Cc3cc(C)nc(C)c3)C2)s1 | 44.8
CN(C)CC#Cc1ccc(OCCCc2sc(N3CCc4cccc(C(=O)Nc5nc6ccccc6s5)c4C3)nc2C(=O)O)c(F)c1 | 17.2

Block 3
Organism: Sarcocystis neurona
Read-out: parasite growth
Concentration: 10 µM
Notes: secondary screen
SMILES | inhibition [%]
CC(=O)[C@H]1CC[C@H]2[C@@H]3CCC4=CC(=O)CC[C@]4(C)[C@H]3CC[C@]12C | -11.1
CC(=O)O[C@]1(C(C)=O)CC[C@H]2[C@@H]3C=C(C)C4=CC(=O)CC[C@]4(C)[C@H]3CC[C@@]21C | -7.9
C[N+]1(C)CCC(OC(=O)C(O)(c2ccccc2)C2CCCC2)C1.[Br-] (stereo not drawn) | -2.9
CCc1c(C)[nH]c2c1C(=O)C(CN1CCOCC1)CC2 (stereo not drawn) | -35.7
CCC1(c2ccccc2)C(=O)NCNC1=O | -28.5
CC1(C)C[C@@H]1C(=O)N/C(=C\CCCCSC[C@H](N)C(=O)O)C(=O)[O-].[Na+] | -47.3
C#C[C@]1(O)CC[C@H]2[C@@H]3CCc4cc(O)ccc4[C@H]3CC[C@@]21C | -77.9
Nc1nnc(-c2cccc(Cl)c2Cl)c(N)n1 | -33

Single results of other studies
SMILES | assay | system | conditions | scale | endpoint | value
CC(=O)N[C@@H](Cc1c[nH]c2ccccc12)C(=O)N[C@@H](CCC(=O)C=[N+]=[N-])C(=O)OC(C)C | UPLC-MS/MS | EL4 tumor, C57BL/6 CES1-/- mice, tumor | subcutaneous, 0.3 mg/kg DON equivalent daily, 5 days | higher = more metabolite | taurine level | 1.34e+08 a.u. and 1.63e+08 a.u. and 1.18e+08 a.u. and 1.49e+08 a.u. and 1.52e+08 a.u.

A few entries again (block 2):
Structure (SMILES) | inhibition [%]
NS(=O)(=O)c1cc(NC(=O)Cc2ccccc2)ccc1Oc1cccc(Cl)c1 | 56.6
Nc1cnc(N2CCc3cc(S(=O)(=O)Nc4c(F)cc(Cl)cc4F)cc(N4CCCC4=O)c32)nc1 | 0.99
N#CC1(c2ccccn2)CCN(Cc2cc(C(=O)N3CCCC3)c(=O)n3ccccc23)CC1 | -2.99
Cc1noc([C@H]2C[C@@H](c3ccc(C(F)(F)F)cc3)CN(C(=O)N3CCS(=O)(=O)C3)C2)n1 | -2.77
C[C@H](c1ccnc(Nc2nc3ccc(-c4cc(N(C)C)ncn4)cc3[nH]2)c1)N1CCN(C(=O)CC(F)(F)F)CC1 | 24.7
CCOc1ccc(S(=O)(=O)Nc2ccc(Cl)cc2C#Cc2cnc(C(=O)O)cc2OC)c2ncccc12 | 15
